Experimental data of several laboratories.
Every numbered part comes from another study and shows a few of its results, in no order.
Chain of UniProt O00329 (whole entry, looked up): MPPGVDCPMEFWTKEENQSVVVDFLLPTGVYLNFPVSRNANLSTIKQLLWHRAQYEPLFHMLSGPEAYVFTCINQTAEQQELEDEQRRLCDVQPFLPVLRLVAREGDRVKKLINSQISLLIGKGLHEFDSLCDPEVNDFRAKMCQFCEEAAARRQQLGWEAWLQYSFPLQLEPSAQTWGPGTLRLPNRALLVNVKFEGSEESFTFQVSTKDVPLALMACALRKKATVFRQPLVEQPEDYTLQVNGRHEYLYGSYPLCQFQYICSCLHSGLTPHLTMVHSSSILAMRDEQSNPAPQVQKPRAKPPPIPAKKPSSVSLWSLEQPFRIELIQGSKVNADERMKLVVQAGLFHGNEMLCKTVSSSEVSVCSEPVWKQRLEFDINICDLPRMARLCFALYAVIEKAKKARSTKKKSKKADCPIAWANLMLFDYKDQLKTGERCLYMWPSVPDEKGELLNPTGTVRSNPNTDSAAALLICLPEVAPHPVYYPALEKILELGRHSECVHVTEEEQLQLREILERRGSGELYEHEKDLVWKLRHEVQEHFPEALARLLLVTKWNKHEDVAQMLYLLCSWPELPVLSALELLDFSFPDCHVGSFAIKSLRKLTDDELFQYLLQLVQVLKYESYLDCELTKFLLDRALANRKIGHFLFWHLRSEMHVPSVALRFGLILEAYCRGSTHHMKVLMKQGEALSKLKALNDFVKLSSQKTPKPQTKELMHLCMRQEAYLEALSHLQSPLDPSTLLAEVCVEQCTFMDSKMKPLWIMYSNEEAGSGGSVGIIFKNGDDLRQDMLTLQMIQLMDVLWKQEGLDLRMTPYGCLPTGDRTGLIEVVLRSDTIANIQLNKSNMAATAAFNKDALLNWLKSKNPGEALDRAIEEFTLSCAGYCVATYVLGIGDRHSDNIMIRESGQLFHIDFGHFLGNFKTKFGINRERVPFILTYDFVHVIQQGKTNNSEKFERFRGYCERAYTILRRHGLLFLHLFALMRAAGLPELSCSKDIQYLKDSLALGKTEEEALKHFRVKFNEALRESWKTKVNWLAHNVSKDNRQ
Chain of UniProt Q13470 (whole entry, looked up): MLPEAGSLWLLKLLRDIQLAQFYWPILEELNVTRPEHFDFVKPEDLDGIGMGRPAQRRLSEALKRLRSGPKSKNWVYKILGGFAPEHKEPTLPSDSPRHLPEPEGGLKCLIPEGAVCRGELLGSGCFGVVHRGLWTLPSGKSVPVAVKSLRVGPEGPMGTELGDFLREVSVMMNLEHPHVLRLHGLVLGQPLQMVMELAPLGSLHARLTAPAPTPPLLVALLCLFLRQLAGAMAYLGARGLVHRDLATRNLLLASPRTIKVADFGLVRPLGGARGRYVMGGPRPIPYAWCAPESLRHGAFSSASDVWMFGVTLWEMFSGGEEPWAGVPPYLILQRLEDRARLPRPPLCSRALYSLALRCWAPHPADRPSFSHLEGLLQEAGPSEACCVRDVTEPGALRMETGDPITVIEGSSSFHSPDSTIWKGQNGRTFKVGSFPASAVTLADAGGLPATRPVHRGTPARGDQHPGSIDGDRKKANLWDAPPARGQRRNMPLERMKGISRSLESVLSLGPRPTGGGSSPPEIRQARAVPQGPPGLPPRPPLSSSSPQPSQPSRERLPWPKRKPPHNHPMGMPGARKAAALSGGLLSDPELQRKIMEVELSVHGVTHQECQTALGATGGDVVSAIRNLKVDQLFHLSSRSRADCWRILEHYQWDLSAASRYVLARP
Chain of UniProt P10721 (whole entry, unmodified, looked up): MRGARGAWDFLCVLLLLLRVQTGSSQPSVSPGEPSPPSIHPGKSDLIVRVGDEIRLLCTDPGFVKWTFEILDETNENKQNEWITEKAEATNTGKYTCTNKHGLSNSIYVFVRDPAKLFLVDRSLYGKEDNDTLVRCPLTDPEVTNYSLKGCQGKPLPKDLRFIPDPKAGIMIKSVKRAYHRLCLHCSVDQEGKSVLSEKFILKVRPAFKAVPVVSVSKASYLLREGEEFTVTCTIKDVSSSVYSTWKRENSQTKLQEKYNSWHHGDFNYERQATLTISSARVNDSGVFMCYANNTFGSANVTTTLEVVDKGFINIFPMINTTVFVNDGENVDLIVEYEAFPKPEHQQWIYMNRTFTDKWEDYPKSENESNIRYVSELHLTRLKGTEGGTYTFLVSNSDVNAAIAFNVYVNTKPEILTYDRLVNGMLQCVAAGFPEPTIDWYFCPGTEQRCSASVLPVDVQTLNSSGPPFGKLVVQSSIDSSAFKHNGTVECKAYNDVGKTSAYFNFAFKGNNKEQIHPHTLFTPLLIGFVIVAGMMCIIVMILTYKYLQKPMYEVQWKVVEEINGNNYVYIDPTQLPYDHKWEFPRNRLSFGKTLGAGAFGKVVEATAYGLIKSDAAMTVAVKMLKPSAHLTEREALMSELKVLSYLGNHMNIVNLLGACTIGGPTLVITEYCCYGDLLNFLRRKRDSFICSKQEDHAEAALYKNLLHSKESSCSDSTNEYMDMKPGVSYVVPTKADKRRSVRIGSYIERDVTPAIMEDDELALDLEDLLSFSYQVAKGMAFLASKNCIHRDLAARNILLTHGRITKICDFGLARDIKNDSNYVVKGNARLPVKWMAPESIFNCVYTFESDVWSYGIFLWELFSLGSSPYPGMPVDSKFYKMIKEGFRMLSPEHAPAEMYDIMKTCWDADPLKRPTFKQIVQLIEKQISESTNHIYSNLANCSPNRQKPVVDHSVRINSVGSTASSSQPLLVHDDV
Chain of UniProt Q9Y6M4 (whole entry, looked up): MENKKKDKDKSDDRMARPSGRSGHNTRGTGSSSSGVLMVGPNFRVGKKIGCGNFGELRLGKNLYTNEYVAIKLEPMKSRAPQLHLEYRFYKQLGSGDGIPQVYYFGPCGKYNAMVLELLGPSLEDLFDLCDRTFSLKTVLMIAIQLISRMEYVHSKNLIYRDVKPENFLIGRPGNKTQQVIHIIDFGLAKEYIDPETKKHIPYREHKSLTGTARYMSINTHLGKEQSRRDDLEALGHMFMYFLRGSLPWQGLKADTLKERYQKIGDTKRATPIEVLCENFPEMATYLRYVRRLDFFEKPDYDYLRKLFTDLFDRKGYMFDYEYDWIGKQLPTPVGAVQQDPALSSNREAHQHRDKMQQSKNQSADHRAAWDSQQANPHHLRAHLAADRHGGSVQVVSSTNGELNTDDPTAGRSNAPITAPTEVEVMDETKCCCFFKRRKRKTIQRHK
Chain of UniProt Q8IYT8 (whole entry, looked up): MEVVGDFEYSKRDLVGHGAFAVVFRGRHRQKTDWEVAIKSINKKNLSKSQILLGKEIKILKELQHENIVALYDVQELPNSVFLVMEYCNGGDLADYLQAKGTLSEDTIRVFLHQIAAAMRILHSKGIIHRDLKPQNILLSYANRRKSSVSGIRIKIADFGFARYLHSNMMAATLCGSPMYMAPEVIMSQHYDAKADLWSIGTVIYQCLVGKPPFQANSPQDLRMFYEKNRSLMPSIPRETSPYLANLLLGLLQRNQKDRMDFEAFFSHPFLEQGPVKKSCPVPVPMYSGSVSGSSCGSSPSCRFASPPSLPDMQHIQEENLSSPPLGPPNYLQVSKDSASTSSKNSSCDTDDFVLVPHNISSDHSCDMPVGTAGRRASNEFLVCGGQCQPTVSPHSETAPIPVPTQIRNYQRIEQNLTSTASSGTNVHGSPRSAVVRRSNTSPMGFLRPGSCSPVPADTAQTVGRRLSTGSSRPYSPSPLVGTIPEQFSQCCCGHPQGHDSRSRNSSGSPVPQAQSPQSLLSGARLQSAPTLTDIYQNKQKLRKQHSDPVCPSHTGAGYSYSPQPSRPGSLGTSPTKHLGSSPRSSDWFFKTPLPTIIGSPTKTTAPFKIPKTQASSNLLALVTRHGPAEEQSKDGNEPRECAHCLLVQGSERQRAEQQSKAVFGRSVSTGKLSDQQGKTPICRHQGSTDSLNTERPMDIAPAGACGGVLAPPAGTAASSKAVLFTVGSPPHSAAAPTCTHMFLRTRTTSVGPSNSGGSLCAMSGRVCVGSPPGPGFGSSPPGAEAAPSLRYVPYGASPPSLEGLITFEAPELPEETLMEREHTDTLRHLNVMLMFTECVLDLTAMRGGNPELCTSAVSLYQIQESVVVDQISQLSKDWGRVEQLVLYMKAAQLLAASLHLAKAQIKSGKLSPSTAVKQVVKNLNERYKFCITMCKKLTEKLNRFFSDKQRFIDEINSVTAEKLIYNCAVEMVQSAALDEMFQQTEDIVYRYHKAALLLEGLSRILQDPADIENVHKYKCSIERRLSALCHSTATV
Chain of UniProt P78368 (whole entry, looked up): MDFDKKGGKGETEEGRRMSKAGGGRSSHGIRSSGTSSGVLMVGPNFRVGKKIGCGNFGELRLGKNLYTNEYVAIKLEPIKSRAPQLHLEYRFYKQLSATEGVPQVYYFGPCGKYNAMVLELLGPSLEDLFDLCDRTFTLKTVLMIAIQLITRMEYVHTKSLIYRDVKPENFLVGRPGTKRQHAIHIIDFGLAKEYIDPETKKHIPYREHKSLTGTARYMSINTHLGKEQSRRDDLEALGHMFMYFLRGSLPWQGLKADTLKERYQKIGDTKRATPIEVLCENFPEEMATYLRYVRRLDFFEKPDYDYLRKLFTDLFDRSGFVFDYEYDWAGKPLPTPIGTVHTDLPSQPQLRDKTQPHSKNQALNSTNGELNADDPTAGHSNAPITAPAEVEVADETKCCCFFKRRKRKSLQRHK
Chain of UniProt Q6PHR2 (whole entry, looked up): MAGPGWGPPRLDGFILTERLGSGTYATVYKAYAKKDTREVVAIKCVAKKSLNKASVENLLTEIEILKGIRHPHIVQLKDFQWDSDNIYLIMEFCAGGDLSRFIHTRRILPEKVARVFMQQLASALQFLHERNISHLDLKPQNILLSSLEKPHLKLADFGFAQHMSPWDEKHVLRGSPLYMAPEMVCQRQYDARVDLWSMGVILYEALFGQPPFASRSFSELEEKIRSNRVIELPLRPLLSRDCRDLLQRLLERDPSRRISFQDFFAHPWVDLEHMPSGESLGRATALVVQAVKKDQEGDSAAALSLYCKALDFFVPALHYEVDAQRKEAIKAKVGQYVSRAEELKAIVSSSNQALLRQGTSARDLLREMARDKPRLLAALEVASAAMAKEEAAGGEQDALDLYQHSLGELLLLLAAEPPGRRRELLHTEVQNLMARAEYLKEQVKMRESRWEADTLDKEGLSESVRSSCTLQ

Block 1
Structure (SMILES): O=C(NS(=O)(=O)c1ccc(NCC2CCOCC2)c([N+](=O)[O-])c1)c1ccc(N2CCN(Cc3ccc(C(F)(F)F)cc3-c3ccc(Cl)cc3)CC2)cc1Oc1cnc2[nH]ccc2c1
Effect on: cell-free assay
Technique: competition with immobilised ligand
Tested at: 1 µM
Quantity: remaining binding
target = KIT (Homo sapiens, UniProt P10721, T670I/V559D); value = 100%
target = MAP3K11 (Homo sapiens, UniProt Q16584); value = 91%
target = PIK3CD (Homo sapiens, UniProt O00329); value = 60%
target = PRKCD (Homo sapiens, UniProt Q05655); value = 100%
target = TNK1 (Homo sapiens, UniProt Q13470); value = 96%
target = CDKL1 (Homo sapiens, UniProt Q00532); value = 100%
target = YES1 (Homo sapiens, UniProt P07947); value = 100%

Block 2
Organism: Sarcocystis neurona
Effect on: parasite growth
Tested at: concentration not given
Quantity: inhibition
SMILES = CN(CCOc1ccc(CC2SC(=O)NC2=O)cc1)c1ccccn1.Cl (centres unmarked); value = -5.2%
SMILES = CN(C)CCC=C1c2ccccc2CCc2ccccc21.Cl; value = 0.559%
SMILES = COc1cc(OC)c(C(=O)CCCN2CCCC2)c(OC)c1.Cl; value = -18%

Block 3
Species: human
Sample: microsomes or S9
Tested at: 2 µM
Time: 0.5 h
Quantity: remaining compound
Compound = CCn1c(=O)n(Cc2cc(-c3ccccc3)no2)c2ccccc21; value = 18.1%
Compound = C[C@]12CC[C@@H]3c4ccc(O)cc4CC[C@H]3[C@@H]1CC[C@@H]2O; value = > 99.9%
Compound = CC(C)(C)NS(=O)(=O)c1ccc(CCC(=O)N2CCCCCC2)cc1; value = 62.7%
Compound = COc1ccccc1N/C(N)=N/Cc1ccccc1OCCN(C)C; value = 98.6%
Compound = COc1cc(=O)n2c(c1C(=O)Nc1cccc3c1CCCC3)CCCC2; value = 21.1%
Compound = OC1(CN2CCC(c3nnc4ccccn34)CC2)CCNC1 (centres unmarked); value = 65.1%
Compound = CCc1nc(NCCc2ccncc2)c2c3c(sc2n1)CCCC3; value = 0.0157%
Compound = CS(=O)(=O)c1cccc(Br)c1N1CCCC2(CNC(=O)O2)C1 (centres unmarked); value = 85.3%

Block 4
SMILES: O=C1Cc2c([nH]c3ccc(Br)cc23)-c2ccccc2N1
Effect on: enzyme activity
Mode: inhibitor
Tested at: 0.5 µM
Baseline: control
Quantity: remaining activity
target = FRK (Homo sapiens, UniProt P42685); value = 97.4%
target = MAP3K5 (Homo sapiens, UniProt Q99683); value = 99.2%
target = ABL2 (Homo sapiens, UniProt P42684); value = 84.9%
target = ULK2 (Homo sapiens, UniProt Q8IYT8); value = 90.1%
target = FGFR1 (Homo sapiens, UniProt P11362); value = 99.4%
target = EPHA3 (Homo sapiens, UniProt P29320); value = 96%
target = MAPKAPK2 (Homo sapiens, UniProt P49137); value = 101%
target = MERTK (Homo sapiens, UniProt Q12866); value = 89.5%
target = CSNK1G3 (Homo sapiens, UniProt Q9Y6M4); value = 103%
target = RPS6KA2 (Homo sapiens, UniProt Q15349); value = 94.9%
target = ULK3 (Homo sapiens, UniProt Q6PHR2); value = 83.2%
target = TEK (Homo sapiens, UniProt Q02763); value = 106%
target = CSNK1G2 (Homo sapiens, UniProt P78368); value = 102%
target = GSK3B (Homo sapiens, UniProt P49841); value = 19.7%

For quick reference, copied from above (block 1):
target = PIK3CD (Homo sapiens, UniProt O00329); value = 60%
target = KIT (Homo sapiens, UniProt P10721, T670I/V559D); value = 100%
target = MAP3K11 (Homo sapiens, UniProt Q16584); value = 91%
target = PRKCD (Homo sapiens, UniProt Q05655); value = 100%
